Experimental data from different studies.
Compare with care: the assays were run in different laboratories. Values joined by “and” are separate records of one study, mostly repeats; a detail may differ. ± gives the spread as reported.
OPRK1: Kappa-type opioid receptor (OPRK1, Homo sapiens, UniProt P41145)
BCHE: Cholinesterase (BCHE, Homo sapiens, UniProt P06276)
ACHE: Acetylcholinesterase (ACHE, Homo sapiens, UniProt P22303)
OPRL1: Nociceptin receptor (OPRL1, Homo sapiens, UniProt P41146)
Neuronal acetylcholine receptor; alpha3/beta2: Neuronal acetylcholine receptor; alpha3/beta2 (Rattus norvegicus, UniProt P04757+P12390)

By UniProt entry, the sequences of proteins in these tests, tags left out. Where a name states a change or a piece, a line headed by the entry shows the natural chain unless it says otherwise. Residues count along the entry.
UniProt P41145, whole entry: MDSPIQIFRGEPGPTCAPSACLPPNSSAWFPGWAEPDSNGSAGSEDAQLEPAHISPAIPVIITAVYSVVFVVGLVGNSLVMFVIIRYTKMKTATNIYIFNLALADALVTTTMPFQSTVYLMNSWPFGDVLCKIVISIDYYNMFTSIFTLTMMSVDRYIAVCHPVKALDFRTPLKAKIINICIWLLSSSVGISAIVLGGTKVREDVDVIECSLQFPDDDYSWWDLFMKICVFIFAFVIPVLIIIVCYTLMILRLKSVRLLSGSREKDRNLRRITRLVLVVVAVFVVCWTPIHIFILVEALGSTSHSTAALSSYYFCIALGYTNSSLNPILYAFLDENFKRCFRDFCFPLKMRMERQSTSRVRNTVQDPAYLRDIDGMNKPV
UniProt P06276, 29-602 limits assumed: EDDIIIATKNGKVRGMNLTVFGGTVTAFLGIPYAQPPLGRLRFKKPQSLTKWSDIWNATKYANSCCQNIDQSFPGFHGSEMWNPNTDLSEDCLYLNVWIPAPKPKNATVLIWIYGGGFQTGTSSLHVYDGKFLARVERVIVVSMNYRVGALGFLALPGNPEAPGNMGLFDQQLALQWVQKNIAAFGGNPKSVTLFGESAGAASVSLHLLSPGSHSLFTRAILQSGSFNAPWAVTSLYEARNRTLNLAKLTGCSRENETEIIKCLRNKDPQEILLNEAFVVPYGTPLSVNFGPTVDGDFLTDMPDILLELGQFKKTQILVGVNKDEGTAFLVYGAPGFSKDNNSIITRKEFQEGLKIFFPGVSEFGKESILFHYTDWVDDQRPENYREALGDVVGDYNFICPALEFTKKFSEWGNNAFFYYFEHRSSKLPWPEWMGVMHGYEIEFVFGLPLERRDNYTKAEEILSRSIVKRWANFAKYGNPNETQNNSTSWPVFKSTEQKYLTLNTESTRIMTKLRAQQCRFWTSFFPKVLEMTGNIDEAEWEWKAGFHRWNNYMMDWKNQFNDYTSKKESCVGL
UniProt P22303, whole entry, looked up: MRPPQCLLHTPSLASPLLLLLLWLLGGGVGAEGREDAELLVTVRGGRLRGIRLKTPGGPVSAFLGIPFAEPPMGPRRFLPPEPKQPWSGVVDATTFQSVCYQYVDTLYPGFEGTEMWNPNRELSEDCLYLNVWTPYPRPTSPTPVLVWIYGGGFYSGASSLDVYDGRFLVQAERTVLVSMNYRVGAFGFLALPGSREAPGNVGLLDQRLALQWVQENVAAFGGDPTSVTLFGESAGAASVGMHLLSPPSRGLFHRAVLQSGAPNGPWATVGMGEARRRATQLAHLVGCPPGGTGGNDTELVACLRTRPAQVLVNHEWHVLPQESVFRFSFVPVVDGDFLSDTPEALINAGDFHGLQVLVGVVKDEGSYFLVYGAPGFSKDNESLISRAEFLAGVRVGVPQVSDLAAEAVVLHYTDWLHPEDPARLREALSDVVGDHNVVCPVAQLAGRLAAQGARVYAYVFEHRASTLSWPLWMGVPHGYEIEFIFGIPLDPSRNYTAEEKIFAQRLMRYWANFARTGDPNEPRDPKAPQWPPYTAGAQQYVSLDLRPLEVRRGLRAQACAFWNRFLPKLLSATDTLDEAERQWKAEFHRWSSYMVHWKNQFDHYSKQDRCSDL
UniProt P22303, 32-614 limits assumed: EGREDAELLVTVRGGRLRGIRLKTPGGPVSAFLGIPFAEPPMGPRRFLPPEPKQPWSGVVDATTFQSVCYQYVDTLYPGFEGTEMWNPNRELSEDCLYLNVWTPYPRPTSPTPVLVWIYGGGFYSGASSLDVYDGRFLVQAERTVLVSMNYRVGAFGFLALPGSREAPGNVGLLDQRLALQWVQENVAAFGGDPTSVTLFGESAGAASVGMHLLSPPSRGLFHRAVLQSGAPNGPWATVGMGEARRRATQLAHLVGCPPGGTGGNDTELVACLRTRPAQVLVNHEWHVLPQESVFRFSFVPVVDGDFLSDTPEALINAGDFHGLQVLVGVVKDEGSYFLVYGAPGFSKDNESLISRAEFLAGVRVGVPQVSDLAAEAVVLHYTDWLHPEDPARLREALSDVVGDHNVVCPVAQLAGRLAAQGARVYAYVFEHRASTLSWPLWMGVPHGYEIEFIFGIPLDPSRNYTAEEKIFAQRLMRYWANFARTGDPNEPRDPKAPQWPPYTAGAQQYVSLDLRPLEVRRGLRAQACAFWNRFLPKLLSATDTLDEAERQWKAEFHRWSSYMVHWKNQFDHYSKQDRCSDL
UniProt P04757, 26-499 limits assumed: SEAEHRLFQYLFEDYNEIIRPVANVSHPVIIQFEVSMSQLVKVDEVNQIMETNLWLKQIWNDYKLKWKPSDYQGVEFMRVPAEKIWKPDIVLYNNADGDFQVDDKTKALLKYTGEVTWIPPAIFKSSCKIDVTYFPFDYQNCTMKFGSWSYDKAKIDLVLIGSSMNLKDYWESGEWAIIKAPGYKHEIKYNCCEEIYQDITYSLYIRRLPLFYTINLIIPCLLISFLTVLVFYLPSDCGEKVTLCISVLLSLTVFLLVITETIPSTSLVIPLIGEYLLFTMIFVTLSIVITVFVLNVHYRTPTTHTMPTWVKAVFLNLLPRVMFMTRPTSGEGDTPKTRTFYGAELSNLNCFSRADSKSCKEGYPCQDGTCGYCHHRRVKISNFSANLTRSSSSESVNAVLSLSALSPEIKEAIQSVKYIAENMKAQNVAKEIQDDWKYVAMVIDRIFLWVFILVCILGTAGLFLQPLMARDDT
UniProt P12390, 25-500 limits assumed: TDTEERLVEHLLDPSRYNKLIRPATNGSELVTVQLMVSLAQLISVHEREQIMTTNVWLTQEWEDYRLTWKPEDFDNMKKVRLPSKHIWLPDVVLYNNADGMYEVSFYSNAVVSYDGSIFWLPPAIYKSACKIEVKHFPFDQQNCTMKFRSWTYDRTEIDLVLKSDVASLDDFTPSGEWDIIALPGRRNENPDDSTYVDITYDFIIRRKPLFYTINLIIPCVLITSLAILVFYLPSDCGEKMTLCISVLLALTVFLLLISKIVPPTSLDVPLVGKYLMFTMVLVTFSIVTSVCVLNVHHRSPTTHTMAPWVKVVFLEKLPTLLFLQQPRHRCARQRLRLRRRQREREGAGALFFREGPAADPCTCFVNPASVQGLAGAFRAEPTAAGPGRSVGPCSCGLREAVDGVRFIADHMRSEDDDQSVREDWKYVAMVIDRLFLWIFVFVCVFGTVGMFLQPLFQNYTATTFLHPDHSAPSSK
UniProt O60733, whole entry: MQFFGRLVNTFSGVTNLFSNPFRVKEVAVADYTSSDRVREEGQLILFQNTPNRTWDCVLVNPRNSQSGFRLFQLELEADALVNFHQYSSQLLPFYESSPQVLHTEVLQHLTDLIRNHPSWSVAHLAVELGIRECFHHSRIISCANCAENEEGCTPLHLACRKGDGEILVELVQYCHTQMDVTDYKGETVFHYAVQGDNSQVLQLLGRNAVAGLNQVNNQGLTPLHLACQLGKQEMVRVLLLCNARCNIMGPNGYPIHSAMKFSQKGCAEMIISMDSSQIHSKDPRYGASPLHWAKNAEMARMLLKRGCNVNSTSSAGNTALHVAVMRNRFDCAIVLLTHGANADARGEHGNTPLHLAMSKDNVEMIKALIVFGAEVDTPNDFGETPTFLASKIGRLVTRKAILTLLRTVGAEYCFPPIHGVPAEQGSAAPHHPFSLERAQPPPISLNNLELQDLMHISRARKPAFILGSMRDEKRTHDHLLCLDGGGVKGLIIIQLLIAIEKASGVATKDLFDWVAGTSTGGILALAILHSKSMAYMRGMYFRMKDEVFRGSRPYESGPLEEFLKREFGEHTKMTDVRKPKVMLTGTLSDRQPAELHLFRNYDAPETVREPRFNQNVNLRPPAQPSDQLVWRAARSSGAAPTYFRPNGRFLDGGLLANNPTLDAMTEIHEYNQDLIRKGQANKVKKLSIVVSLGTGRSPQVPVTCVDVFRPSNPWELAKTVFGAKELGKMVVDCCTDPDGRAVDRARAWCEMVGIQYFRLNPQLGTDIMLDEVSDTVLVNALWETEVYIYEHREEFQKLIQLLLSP
UniProt O75417, whole entry, looked up, stated change not applied: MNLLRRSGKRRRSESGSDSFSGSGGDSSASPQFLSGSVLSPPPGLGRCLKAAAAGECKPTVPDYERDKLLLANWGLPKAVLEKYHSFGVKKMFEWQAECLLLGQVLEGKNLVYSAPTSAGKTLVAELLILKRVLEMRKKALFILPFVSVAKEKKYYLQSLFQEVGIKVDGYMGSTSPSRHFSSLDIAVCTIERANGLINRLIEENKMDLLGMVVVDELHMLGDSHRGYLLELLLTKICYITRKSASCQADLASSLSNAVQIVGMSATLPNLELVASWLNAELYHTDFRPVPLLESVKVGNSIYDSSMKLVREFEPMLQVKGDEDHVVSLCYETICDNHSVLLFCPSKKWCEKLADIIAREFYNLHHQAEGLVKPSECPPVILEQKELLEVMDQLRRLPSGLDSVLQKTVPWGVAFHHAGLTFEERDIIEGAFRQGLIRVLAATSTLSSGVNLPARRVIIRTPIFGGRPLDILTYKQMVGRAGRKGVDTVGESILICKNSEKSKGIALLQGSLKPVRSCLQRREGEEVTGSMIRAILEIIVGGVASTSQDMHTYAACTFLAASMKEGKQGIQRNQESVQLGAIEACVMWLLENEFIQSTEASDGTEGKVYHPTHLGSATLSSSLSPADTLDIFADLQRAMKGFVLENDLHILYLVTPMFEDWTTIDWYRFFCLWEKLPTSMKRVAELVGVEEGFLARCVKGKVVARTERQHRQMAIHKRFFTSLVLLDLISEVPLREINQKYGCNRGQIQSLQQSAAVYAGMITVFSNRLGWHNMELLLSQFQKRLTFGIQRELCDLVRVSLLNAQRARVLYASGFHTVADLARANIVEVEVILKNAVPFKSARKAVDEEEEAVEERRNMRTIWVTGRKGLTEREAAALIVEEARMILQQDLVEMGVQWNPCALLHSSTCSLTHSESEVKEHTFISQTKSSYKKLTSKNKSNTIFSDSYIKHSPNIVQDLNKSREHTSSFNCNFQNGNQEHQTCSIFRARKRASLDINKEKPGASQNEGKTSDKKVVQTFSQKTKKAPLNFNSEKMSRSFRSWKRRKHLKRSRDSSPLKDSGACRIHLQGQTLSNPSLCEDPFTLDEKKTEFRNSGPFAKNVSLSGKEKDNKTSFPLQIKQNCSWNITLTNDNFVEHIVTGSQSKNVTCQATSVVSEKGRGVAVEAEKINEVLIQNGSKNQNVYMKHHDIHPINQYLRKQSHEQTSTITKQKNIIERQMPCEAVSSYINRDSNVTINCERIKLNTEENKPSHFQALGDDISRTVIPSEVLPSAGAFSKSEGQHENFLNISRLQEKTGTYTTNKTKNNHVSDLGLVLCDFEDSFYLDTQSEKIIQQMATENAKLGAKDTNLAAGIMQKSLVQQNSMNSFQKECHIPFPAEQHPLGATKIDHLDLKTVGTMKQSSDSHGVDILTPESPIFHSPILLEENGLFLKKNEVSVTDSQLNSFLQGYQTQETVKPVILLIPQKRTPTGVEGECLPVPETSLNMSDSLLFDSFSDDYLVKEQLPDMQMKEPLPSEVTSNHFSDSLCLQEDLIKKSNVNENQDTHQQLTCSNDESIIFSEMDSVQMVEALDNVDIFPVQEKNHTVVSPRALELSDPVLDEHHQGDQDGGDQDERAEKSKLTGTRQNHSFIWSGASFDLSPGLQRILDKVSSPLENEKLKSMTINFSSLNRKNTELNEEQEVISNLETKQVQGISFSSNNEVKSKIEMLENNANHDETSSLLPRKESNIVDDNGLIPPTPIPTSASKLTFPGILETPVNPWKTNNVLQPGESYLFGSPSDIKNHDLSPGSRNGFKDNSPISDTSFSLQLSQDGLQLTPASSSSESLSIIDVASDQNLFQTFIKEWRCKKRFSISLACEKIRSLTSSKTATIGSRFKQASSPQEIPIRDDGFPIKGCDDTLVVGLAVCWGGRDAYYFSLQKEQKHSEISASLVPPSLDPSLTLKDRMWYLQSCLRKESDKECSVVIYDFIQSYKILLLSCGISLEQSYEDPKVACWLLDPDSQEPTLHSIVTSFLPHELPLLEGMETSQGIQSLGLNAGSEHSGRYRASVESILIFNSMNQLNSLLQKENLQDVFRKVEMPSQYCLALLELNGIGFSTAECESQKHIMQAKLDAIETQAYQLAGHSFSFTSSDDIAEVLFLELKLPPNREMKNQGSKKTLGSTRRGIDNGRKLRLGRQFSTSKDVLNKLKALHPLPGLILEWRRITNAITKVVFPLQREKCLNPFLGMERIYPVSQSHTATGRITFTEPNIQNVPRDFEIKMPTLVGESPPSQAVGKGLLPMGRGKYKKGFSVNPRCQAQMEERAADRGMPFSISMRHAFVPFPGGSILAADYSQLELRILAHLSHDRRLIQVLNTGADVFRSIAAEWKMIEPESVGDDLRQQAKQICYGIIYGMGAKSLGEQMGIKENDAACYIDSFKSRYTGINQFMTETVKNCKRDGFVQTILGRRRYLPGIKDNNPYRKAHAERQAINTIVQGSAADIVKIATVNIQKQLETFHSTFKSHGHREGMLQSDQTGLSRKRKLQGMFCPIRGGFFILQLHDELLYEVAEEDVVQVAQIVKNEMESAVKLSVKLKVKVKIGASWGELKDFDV

Molecule = U-69593; target = OPRK1; test = agonist, high content imaging; system = U2OS expressing human KOR; conditions = 10 µM; how to read = relative to: reference agonist; endpoint = β-arrestin2 recruitment; value = 100%
Molecule = ethoxymethyl salvinorin B; target = Kappa-type opioid receptor (Oprk1, Mus musculus, UniProt P33534); test = receptor internalization, agonist, on-cell western; conditions = mouse receptor; how to read = relative to: control; endpoint = Emax; value = 46.8 ± 3.8%
Molecule = CO[C@]12CC[C@@]3(C[C@@H]1[C@](C)(O)c1ccc(Cl)s1)[C@H]1Cc4ccc(O)c5c4[C@@]3(CCN1CC1CC1)[C@H]2O5; target = OPRK1; test = G-protein activation, agonist; conditions = 10 µM; how to read = relative to: U-69593; endpoint = stimulation; value = 79 ± 6%
Molecule = CCCC(=O)SCC[N+](C)(C)C; target = BCHE; test = substrate; endpoint = kcat; value = 500 s⁻¹
Molecule = Nc1ccc(O)cc1; target = ACHE; test = enzyme activity, inhibitor; conditions = 1000 µM; endpoint = inhibition; value = 0%
Molecule = pralidoxime iodide; target = Acetylcholinesterase, DFP-inhibited (ACHE, Homo sapiens, UniProt P22303); test = reactivator; conditions = pH 8.0, 25 °C; endpoint = reactivation rate constant (kr); value = 0.183 M⁻¹ s⁻¹
Molecule = CO[C@]12CC[C@@]3(C[C@@H]1[C@](C)(O)c1ccc(Cl)cc1)[C@H]1Cc4ccc(O)c5c4[C@@]3(CCN1CC1CC1)[C@H]2O5; target = Mu-type opioid receptor (Oprm1, Rattus norvegicus, UniProt P33535); test = G protein activation, agonist; conditions = 10 µM; how to read = relative to: DAMGO; endpoint = stimulation; value = 16 ± 4%
Molecule = CN(C)Cc1cc(O)ccc1N; target = ACHE; test = enzyme activity, inhibitor; conditions = 1000 µM; endpoint = inhibition; value = 18%
Molecule = methoxymethyl salvinorin B; target = OPRK1; test = receptor internalization, agonist; conditions = concentration not given; how to read = relative to: dynorphin A; endpoint = log intrinsic relative activity; value = 0.47 ± 0.11
Molecule = CCOc1ccc2c(c1)Oc1cc(OCC)ccc1C21OC(=O)c2ccccc21; target = Cytochrome P450 6P2 (Anopheles gambiae, UniProt Q8T629, V81I); test = substrate; conditions = dual plasmid expression; endpoint = Km; value = 1.4 ± 0.02 µM
Molecule = COc1ccc(CCCCC(=O)C(F)(F)C(F)(F)F)cc1; target = 85/88 kDa calcium-independent phospholipase A2 (PLA2G6, Homo sapiens, UniProt O60733); test = enzyme activity, inhibitor, HPLC-MS/MS lipidomics; how to read = relative to: IC50 GV sPLA2 over IC50 PLA2G6; endpoint = selectivity ratio; value = 262
Molecule = CC#C/C(=N\OC[C@H]1COCCN1)c1ccc2ncnc(Nc3ccc(OCc4cccc(F)c4)c(Cl)c3)c2c1; target = Angiopoietin-1 receptor (TEK, Homo sapiens, UniProt Q02763); test = kinase activity; conditions = 10 µM; endpoint = inhibition; value = 42.2%
Molecule = CCOc1ccc(Cc2nc3cc(C(=O)N(CC)CC)ccc3n2CCC(C)C)cc1; target = Cannabinoid receptor 1 (CNR1, Homo sapiens, UniProt P21554); test = binding; system = CHO membranes; conditions = 10 µM, together with: [3H]CP-55940; endpoint = displacement; value = 24%
Molecule = CO[C@]12CC[C@@]3(C[C@@H]1[C@](C)(O)CC(C)(C)c1ccccc1)[C@H]1Cc4ccc(O)c5c4[C@@]3(CCN1CC1CC1)[C@H]2O5; target = OPRL1; test = radioligand binding; how to read = relative to: Ki MOP over Ki OPRL1; endpoint = selectivity ratio; value = 10 fold
Molecule = CN(C(=O)Cc1ccc(Cl)c(Cl)c1)[C@H](CN1CCCC1)c1ccccc1; target = OPRK1; test = G protein activation, agonist; conditions = concentration not given; how to read = relative to: dynorphin A; endpoint = log intrinsic relative activity; value = 1.46 ± 0.1
Molecule = COc1ccc(C(=O)NC(Sc2ccc(Cl)cc2)C(Cl)(Cl)Cl)cc1 (centres unmarked); target = Transient receptor potential cation channel subfamily A member 1 (TRPA1, Homo sapiens, UniProt O75762); test = antagonist, FLIPR calcium; conditions = concentration not given, together with: 30 µM mustard oil; endpoint = MO-induced calcium influx; value = inhibited
Molecule = CC(C)C[C@@H]1NC(=O)[C@H](CCC(=O)O)NC(=O)[C@@H]2CCCN2C(=O)[C@H](Cc2c[nH]cn2)NC(=O)[C@H](CCCCC(=O)O)NC(=O)[C@H](CC(C)C)NC(=O)[C@H](Cc2c[nH]cn2)NC(=O)[C@@H]2CSSC[C@H](NC(=O)CN)C(=O)N[C@@H](CSSC[C@@H](C(N)=O)NC1=O)C(=O)N[C@@H](CO)C(=O)N[C@@H](Cc1c[nH]cn1)C(=O)N1CCC[C@H]1C(=O)N[C@@H](C)C(=O)N2; target = Neuronal acetylcholine receptor; alpha3/beta2; how to read = relative to: IC50 α6/α3β2β3 over α3β2; endpoint = selectivity ratio; value = ~59 and 59
Molecule = CO[C@]12CC[C@@]3(C[C@@H]1[C@@](C)(O)c1ccncc1)[C@H]1Cc4ccc(O)c5c4[C@@]3(CCN1CC1CC1)[C@H]2O5; target = OPRK1; test = G-protein activation, agonist; conditions = 10 µM; how to read = relative to: U-69593; endpoint = stimulation; value = -17 ± 7%
Molecule = O=C(O)C1=CS[C@@H]2/C(=C\c3cc4n(n3)CSC4)C(=O)N12; target = blaC (Mycobacterium tuberculosis, UniProt P9WKD3); test = inactivation; endpoint = KI; value = 0.8 µM
Molecule = CCC(=O)SCC[N+](C)(C)C; target = BCHE; test = substrate; endpoint = substrate inhibition constant (Kss); value = 1.5 ± 0.4 mM
Molecule = CC(C)C[C@@H]1NC(=O)[C@H](CCCNC(=N)N)NC(=O)[C@@H]2CCCN2C(=O)[C@H](Cc2c[nH]cn2)NC(=O)[C@H](CC(N)=O)NC(=O)[C@H](C(C)C)NC(=O)[C@H](CO)NC(=O)[C@@H]2CSSC[C@H](NC(=O)CN)C(=O)N[C@@H](CSSC[C@@H](C(N)=O)NC1=O)C(=O)N[C@@H](CO)C(=O)N[C@@H](Cc1c[nH]cn1)C(=O)N1CCC[C@H]1C(=O)N[C@@H](C)C(=O)N2; target = Neuronal acetylcholine receptor; alpha3/beta2; how to read = relative to: IC50 α6/α3β2β3 over α3β2; endpoint = selectivity ratio; value = 0.1
Molecule = naltrexamine Alexa 594; target = Mu-type opioid receptor (Oprm1, Mus musculus, UniProt P42866); test = receptor binding, live-cell binding kinetics; conditions = 300 nM, 90 s, together with: Met-enkephalin 30 µM for 2 h; how to read = relative to: no pretreatment; endpoint = unbinding rate; value = no effect
Molecule = CN(C(=O)Cc1ccc(Cl)c(Cl)c1)[C@H]1CC[C@@]2(CCCO2)C[C@@H]1N1CCCC1; target = DNA polymerase theta, ATPase domain (POLQ, Homo sapiens, UniProt O75417); test = enzyme activity, inhibitor; conditions = 77 µM; endpoint = remaining activity; value = 100%
Molecule = CN(C(=O)Cc1ccc(Cl)c(Cl)c1)C1CCC2(CCCO2)CC1N1CCCC1 (centres unmarked); target = OPRK1; test = agonist; how to read = relative to: G protein over internalization, vs dynorphin A, positive means G protein bias; endpoint = log bias factor; value = 0.26 ± 0.21
Molecule = CCCCOP(=O)(OCCCC)OCCCC; target = Peroxisome proliferator-activated receptor gamma (PPARG, Homo sapiens, UniProt P37231); test = reporter gene, agonist; system = HEK293; how to read = relative to: rosiglitazone maximum; endpoint = EC20; value = 13.3 µM
Molecule = O[As](O)O; target = Inositol transporter 4 (INT4, Arabidopsis thaliana, UniProt O23492); test = arsenic uptake, substrate, ICP-MS; system = yeast expressing transporter; conditions = 30 min, 30 °C, together with: 2 µg/mL myo-inositol; endpoint = Km; value = 174 µM
Molecule = CCN1CCN(Cc2ccc(NC(=O)c3ccc(C)c(/C=C/c4cnc5[nH]ccc5c4OC)c3)cc2C(F)(F)F)CC1; target = CCDC6-RET fusion; test = kinase-CDC37 interaction, inhibitor; system = human cells; conditions = 5 µM; how to read = relative to: vehicle; endpoint = log2 fold change; value = -0.391
Molecule = CC(=O)SCC[N+](C)(C)C; target = BCHE; test = substrate; endpoint = substrate inhibition constant (Kss); value = 1.7 ± 0.3 mM
Molecule = O=c1[nH]c(CC2CCCCC2)cc(O)c1-c1ccccc1; target = Enoyl-[acyl-carrier-protein] reductase [NADH] (inhA, Mycobacterium tuberculosis, UniProt P9WGR1); test = thermal shift; endpoint = ΔTm; value = 1.5 °C
Molecule = CCCCCCCCCCC1=C(C)C(=O)C(OC)=C(OC)C1=O; target = Dihydroorotate dehydrogenase (quinone) (Pyricularia oryzae, UniProt G4NFI3, M402V); test = substrate; endpoint = Km; value = 495 ± 52.2 µM
Molecule = cysteamine S-phosphate; target = uncharacterized protein SAR11_0864 (Pelagibacter ubique, UniProt Q4FMA9); test = differential scanning fluorimetry; system = Candidatus Pelagibacter ubique; conditions = single replicate; endpoint = delta Tm; value = 2.19 °C
Molecule = CC(C)[C@H]1CC[C@@H](N2CCC(n3c(CO)cc4ccccc43)CC2)CC1; target = Muscarinic acetylcholine receptor M2 (CHRM2, Homo sapiens, UniProt P08172); test = radioligand binding; conditions = 10 µM; endpoint = inhibition; value = 85%
Molecule = Cc1c(-c2ccc(-c3ccc(OC(F)(F)F)cc3)nc2)[nH]c2ccccc2c1=O; target = cydA, with CydB subunit (Mycobacterium tuberculosis, UniProt L7N662); test = inhibitor; conditions = 110 nM; endpoint = specific activity; value = 6 ± 0.5 µmol/min/mg
Molecule = Cc1ccc2[nH]c(CNCCC[C@H]3CCOC3)cc(=O)c2c1; target = D(3) dopamine receptor (DRD3, Homo sapiens, UniProt P35462); conditions = 10 µM; endpoint = binding; value = inactive
Molecule = O=C(O)c1ccccc1[As](=O)(O)O; target = Sphingomyelin phosphodiesterase (SMPD1, Homo sapiens, UniProt P17405); test = enzyme activity; conditions = pH 5.0, together with: HMU-PC substrate; endpoint = maximal inhibition; value = 102%
Molecule = CO[C@]12CC[C@@]3(C[C@@H]1[C@](C)(O)c1ccc(F)cc1)[C@H]1Cc4ccc(O)c5c4[C@@]3(CCN1CC1CC1)[C@H]2O5; target = Mu-type opioid receptor (Oprm1, Rattus norvegicus, UniProt P33535); test = G protein activation, agonist; conditions = 10 µM; how to read = relative to: DAMGO; endpoint = stimulation; value = 18 ± 4%
Molecule = CCN(Cc1ccncc1)C(=O)C(CO)c1ccccc1 (centres unmarked); target = Muscarinic acetylcholine receptor (Xenopus laevis, UniProt A0A8J0U760); test = binding, [3H]QNB competition; system = Xenopus laevis heart homogenate; endpoint = Hill coefficient; value = 0.83
Molecule = nociceptin; target = OPRL1; test = receptor internalization; conditions = 10 µM; endpoint = onset time; value = 5 min
Molecule = CC(C)C[C@@H]1NC(=O)[C@H](CCC(=O)O)NC(=O)[C@@H]2CCCN2C(=O)[C@H](Cc2c[nH]cn2)NC(=O)[C@H](CC(=O)O)NC(=O)[C@H](CC(C)C)NC(=O)[C@H](Cc2c[nH]cn2)NC(=O)[C@@H]2CSSC[C@H](NC(=O)CN)C(=O)N[C@@H](CSSC[C@@H](C(N)=O)NC1=O)C(=O)N[C@@H](CO)C(=O)N[C@@H](Cc1c[nH]cn1)C(=O)N1CCC[C@H]1C(=O)N[C@@H](C)C(=O)N2; target = Neuronal acetylcholine receptor; alpha3/beta2; how to read = relative to: IC50 α6/α3β2β3 over α3β2; endpoint = selectivity ratio; value = 12
Molecule = CO[C@]12CC[C@@]3(C[C@@H]1[C@](C)(O)c1ccsc1)[C@H]1Cc4ccc(O)c5c4[C@@]3(CCN1CC1CC1)[C@H]2O5; target = OPRK1; test = G-protein activation, agonist; conditions = 10 µM; how to read = relative to: U-69593; endpoint = stimulation; value = 79 ± 2%
Molecule = CN(C(=O)Cc1cccc2occc12)[C@H]1CC[C@@]2(CCCO2)C[C@@H]1N1CCCC1; target = OPRK1; test = G protein activation, agonist; conditions = concentration not given; how to read = relative to: dynorphin A; endpoint = log intrinsic relative activity; value = 0.044 ± 0.1

Excerpt of the above:
Molecule = ethoxymethyl salvinorin B; target = Kappa-type opioid receptor (Oprk1, Mus musculus, UniProt P33534); test = receptor internalization, agonist, on-cell western; conditions = mouse receptor; how to read = relative to: control; endpoint = Emax; value = 46.8 ± 3.8%
Molecule = CO[C@]12CC[C@@]3(C[C@@H]1[C@](C)(O)c1ccc(Cl)s1)[C@H]1Cc4ccc(O)c5c4[C@@]3(CCN1CC1CC1)[C@H]2O5; target = OPRK1; test = G-protein activation, agonist; conditions = 10 µM; how to read = relative to: U-69593; endpoint = stimulation; value = 79 ± 6%
Molecule = CCCC(=O)SCC[N+](C)(C)C; target = BCHE; test = substrate; endpoint = kcat; value = 500 s⁻¹
Molecule = Nc1ccc(O)cc1; target = ACHE; test = enzyme activity, inhibitor; conditions = 1000 µM; endpoint = inhibition; value = 0%
Molecule = pralidoxime iodide; target = Acetylcholinesterase, DFP-inhibited (ACHE, Homo sapiens, UniProt P22303); test = reactivator; conditions = pH 8.0, 25 °C; endpoint = reactivation rate constant (kr); value = 0.183 M⁻¹ s⁻¹
Molecule = CO[C@]12CC[C@@]3(C[C@@H]1[C@](C)(O)c1ccc(Cl)cc1)[C@H]1Cc4ccc(O)c5c4[C@@]3(CCN1CC1CC1)[C@H]2O5; target = Mu-type opioid receptor (Oprm1, Rattus norvegicus, UniProt P33535); test = G protein activation, agonist; conditions = 10 µM; how to read = relative to: DAMGO; endpoint = stimulation; value = 16 ± 4%
